Measurements collected from several papers.
Every numbered part comes from another study and shows a few of its results, in no order.

Block 1 — technique: protein-binding microarray; form: double-stranded DNA, one strand shown; medium: in vitro; tested at: not given; direction: higher = stronger binding
Target: Protein C-ets-1 (ETS1, Homo sapiens, UniProt P14921, residues 1-441, full length assumed)
Sequence of UniProt P14921 (whole entry, looked up): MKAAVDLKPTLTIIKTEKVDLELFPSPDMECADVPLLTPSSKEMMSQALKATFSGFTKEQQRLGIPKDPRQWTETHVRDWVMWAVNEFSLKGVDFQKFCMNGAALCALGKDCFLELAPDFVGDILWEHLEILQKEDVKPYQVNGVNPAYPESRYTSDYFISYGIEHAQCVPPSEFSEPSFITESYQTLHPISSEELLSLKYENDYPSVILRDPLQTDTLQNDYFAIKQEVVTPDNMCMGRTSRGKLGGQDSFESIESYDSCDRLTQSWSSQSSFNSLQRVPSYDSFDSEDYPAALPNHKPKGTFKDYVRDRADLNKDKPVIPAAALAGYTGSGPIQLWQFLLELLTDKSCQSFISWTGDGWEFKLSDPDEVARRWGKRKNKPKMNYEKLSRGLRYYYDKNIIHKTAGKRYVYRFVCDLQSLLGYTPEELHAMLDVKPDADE
Notes: k-mer, scored over probes, only values ≥0.25
| Oligonucleotide | E-score |
| --- | --- |
| AATAGGAT | 0.266 |
| CCCATGGG | 0.257 |
| AGGATGTA | 0.441 |
| ACCCTCCC | 0.278 |
| GATATATC | 0.327 |
| CATTTCCG | 0.489 |
| TCCCGCCA | 0.292 |
| ACAGGACG | 0.428 |
| CCCACATC | 0.271 |
| AGATCCGG | 0.434 |
| CCTTCCCA | 0.271 |
| CACATTTC | 0.299 |
| CAATATCC | 0.332 |
| ATTGTTCC | 0.272 |
| ATATCCTA | 0.29 |
| CATCCCCC | 0.314 |
| CCGTATCC | 0.433 |

Block 2 — technique: RNA Bind-n-Seq; form: RNA; medium: in vitro; tested at: 200 nM; notes: whole 134-nt RNA, ends assumed; together with: 150 mM KCl; relative to: input library; direction: higher = stronger binding
Target: Ras GTPase-activating protein-binding protein 1, full length (G3BP1, Homo sapiens, UniProt Q13283)
Sequence of UniProt Q13283 (whole entry, looked up): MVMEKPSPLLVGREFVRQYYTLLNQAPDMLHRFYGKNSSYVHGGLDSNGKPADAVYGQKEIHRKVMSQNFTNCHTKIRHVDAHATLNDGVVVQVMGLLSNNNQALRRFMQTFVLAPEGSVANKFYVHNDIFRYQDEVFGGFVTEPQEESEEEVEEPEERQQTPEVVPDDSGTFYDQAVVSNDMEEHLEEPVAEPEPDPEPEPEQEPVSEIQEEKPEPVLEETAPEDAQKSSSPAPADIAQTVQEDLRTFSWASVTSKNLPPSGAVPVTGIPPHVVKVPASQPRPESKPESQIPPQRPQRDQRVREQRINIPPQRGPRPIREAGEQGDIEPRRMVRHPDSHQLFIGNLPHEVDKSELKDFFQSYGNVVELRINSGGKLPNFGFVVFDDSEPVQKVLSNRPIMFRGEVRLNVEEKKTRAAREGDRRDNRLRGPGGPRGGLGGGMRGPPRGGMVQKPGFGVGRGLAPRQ
| Oligonucleotide | log2 enrichment |
| --- | --- |
| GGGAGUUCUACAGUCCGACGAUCCACUGACAACACGCACCCACACAGACACAGAGGGAAGGGGUUGGGAUGGGGACAGGGUGCACAGCAGGGCGGGGUAGGACCCCAGCCCCUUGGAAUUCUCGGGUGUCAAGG | 1.73 |
| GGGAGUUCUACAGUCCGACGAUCUGGAGAGGGAAGUCCCAAUGGUGCUAGAAUGGUGCUGCAGUGGCAGAAGACGGCUCACAAGUGAGGUCUGGAAGAACAACAGGGAAGACAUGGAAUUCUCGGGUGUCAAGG | 0.267 |
| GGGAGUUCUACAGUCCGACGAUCUAACUUUAGAGGAGGAUCUGAUGGAUGUGGCAGUGGACGUGGAUUUGGGGAUGGCUAUAAUGGGUAUGGAGGAGGACCUGGAGGUGGCAAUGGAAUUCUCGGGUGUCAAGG | 0.38 |
| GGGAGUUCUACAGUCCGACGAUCUCCUCAAGUCCUGUGCUACACAUCGUAUGUACCGAAUCGGGGUGGUGGUGGAAAGUAUUAUGUUACGCCGUUCGGAUCUGCACUUCCAGCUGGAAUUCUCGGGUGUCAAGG | -0.108 |
| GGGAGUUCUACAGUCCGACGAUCCUCAAGUCCUGUGCUACACAUCGUAUGUACCGAAUCGGGAAGGAAGGGAAGGGGAAAGUAUUAUGUUACGCCGUUCGGAUCUGCACUUCCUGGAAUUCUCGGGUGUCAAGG | 0.328 |
| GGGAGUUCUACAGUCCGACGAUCUGGGAGGUGGAUUUUGUUUAUUUUUGUAGCUCAUUUCCAGGGGUGGGAAUUUUUUUUUAAUAUGUGUCAUGAAUAAAGUUGUUUUUGAAAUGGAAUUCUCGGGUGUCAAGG | 0.213 |
| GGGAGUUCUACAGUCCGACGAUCUGGCCCUGGUGGCAUGCGGGGAGGAAGAGGUGGCCUCAUGGAUCGUGGUUGUCCCGGUGGAAUGUUCAGAGGUGGCCGUGGUGGAGACAGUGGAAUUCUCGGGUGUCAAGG | 0.226 |
| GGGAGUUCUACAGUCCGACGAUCGCAGGAAGUAAAAACAAAUGGAAAUGCUUCGGAUAGUGGCAGGGGUGGGGGUUGCCAAGGAAAGGGUGGGAUGGGAGUGGGUAAAGAGUUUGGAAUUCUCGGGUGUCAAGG | 0.524 |
| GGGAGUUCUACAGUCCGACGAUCCACAGACAACACGCACCCACACAGACACAGAGGGAAGGGGUUGGGAUGGGGACAGGGUGCACAGCAGGGCGAGGUAGGACCCCAGCCCCUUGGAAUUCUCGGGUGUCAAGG | 2 |
| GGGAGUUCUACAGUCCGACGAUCUGGGAGGUGGAUUUUGUUUAUUUUUUUAGCUCAUUUCCAGGGGUGGGAAUUCUUUUUUAAUAUGUGUCAUGAAUAAAGUUGUUUUUGAAAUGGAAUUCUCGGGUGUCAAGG | 0.0101 |
| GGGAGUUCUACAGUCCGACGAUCUCCUGUGCUACACAUCGUAUGUACCGAAUCGGCCCCCCCGGCCCCCCCGGCCCCCCCGGGAAAGUAUUAUGUUACGCCGUUCGGAUCUGCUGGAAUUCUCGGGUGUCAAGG | 0.419 |
| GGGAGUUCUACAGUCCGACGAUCUAACUUUAGAGAAGGAUCUGAUGGAUAUGGCAGUGGACGUGGAUUUGGGGAUGGCUAUAAUGGGUAUGGAGGAGGACCUGGAGGUGGCAAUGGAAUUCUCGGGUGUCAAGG | 0.405 |
| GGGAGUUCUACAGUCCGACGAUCCUCAAGUCCUGUGCUACACAUCGUAUGUACCGAAUCGGGAGGGAAAGGGAGGGAAAGUAUUAUGUUACGCCGUUCGGAUCUGCACUUCCAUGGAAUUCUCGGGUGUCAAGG | 1.3 |
| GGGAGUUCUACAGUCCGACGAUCUCAAGUCCUGUGCUACACAUCGUAUGUACCGAAUCGGUUUUUGGUUUGGUUUGGAAAGUAUUAUGUUACGCCGUUCGGAUCUGCACUUCCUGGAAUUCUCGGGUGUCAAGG | -0.939 |

Block 3 — technique: RNA Bind-n-Seq; form: RNA; medium: in vitro; tested at: 365 nM; relative to: no-protein control; direction: higher = stronger binding
Target: RNA binding protein fox-1 homolog 2, RRM domain, GST-SBP tag (RBFOX2, Homo sapiens, UniProt O43251-10, residues 100-194)
Notes: natural RNA segment, single round, ends assumed
Target sequence (chain): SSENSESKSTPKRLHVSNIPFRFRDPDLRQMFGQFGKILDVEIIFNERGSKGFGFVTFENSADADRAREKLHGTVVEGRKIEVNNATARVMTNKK
| Oligonucleotide | RBNS enrichment (R) |
| --- | --- |
| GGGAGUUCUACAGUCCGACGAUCAGCAAGACAUAAACAGAUUAUAAACAUCAGAGCCAUUUGCUUCUCAGUUUACAUUUCUGAUACAUGCAGAUAGCAGAUGUCUUUAAAUGAAAUACAUGUAUAUUGUGUAUUGGAAUUCUCGGGUGCCAA | 0.373 |
| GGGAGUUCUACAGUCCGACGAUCCAAUAAACAAAGAAGCGAAGAUAAGAAAGAAGGCCUCAUAUCCAAUUACCUCACUCAUUCACAUGUGAGCGACACGCAGACAUCCGCGAGGGCCAGCGUCACCAGACCAGUGGAAUUCUCGGGUGCCAA | 0.314 |
| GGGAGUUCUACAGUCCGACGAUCCCCCACUCCCAGCCCCUUUUCCUCUAUGUGACAGCUCCCUAGGACCCCUCUGCCUUCCUCCCCAAUCCUGACUGGCUCCUAGGGAAGGGGAAGGCUCCUGGAGGGCAGCCUGGAAUUCUCGGGUGCCAA | 0.834 |
| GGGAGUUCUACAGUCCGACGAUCCCUUGCCCCACCCAUCCCAUCUCCAACCCUAGUCUUCCAUUUCCUCCCGCCAGUCUCCAUUGAAUCAAUGGUGCAGGACAGAAAGCCAGUCAGACUAAUUUCCUUCUUUCUGGAAUUCUCGGGUGCCAA | 0.662 |
| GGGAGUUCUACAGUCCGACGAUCAACUGUAUAGUGUACAUGGUAAUGAUUUAUUGCUAUGCCCCAGAUCCUUAAUGUAGUUCUCAUCCUCCGCAUGCCCUCAGCCACAAGCGGGUGACUGACUGUUCCCUGAUUGGAAUUCUCGGGUGCCAA | 4.28 |
| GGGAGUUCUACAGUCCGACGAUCCUGUGUCCCUGUCUUAGUCAGAACCUCUGUCCUUUCCUCACCAACUAACAUGUGCCAGCCAGGCAGAGUCUCGGGCUGCCCCCAAGAUAGGACCACAGUGAACAAGAGCAUGGAAUUCUCGGGUGCCAA | 0.542 |
| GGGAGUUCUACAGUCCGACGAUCACUGUAGAAGCCAUUUUGAAGGAUUUGGCUUUUUAUUGUUUGUGGCAUUAAUAAGGGAGCUUACCAUUCUGGUGGGAUGUGCAUGAGGCGUUCACAGCCCCCAUACAUGGUGGAAUUCUCGGGUGCCAA | 3.05 |
| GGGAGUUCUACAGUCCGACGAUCACUGCCCCCUCCCUCGGGUUGGGUGGCCCAGCCAGCUGGCCAGCCUCCACUCCCACUCUGCCAGACACCCUGACACCCACCCAGGCUUUGAAGAGCAUGGAGGGGGAGCCUGGAAUUCUCGGGUGCCAA | 0.775 |
| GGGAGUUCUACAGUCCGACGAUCCUUGCAAUUGCUUUGUCGUGGCAAGUGUGUUGUUCUACUCUCUCUUGUUUGAAACAAUGCUUGACAAUUCAGAAAUUAACCACUGAUGUGCUGUGGAAUGUGAUGCUUGUUGGAAUUCUCGGGUGCCAA | 8.59 |
| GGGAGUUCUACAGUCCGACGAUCAAUUAAAUUAUUUAUAUAUUUUUGAAACCCGAAUUGAAAAUGUUGCAGGCAACGGGCUACAGCUUUAUUAGUGGUUCUCUAACUGUGGUCUCCUUGGGCCAAGCAAUUUCUGGAAUUCUCGGGUGCCAA | 1.06 |
| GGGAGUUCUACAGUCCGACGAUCUAAAUGUCUUGCUUACAGUGGUGUUGCCCCGACUCCAGAUCAGCCUGGGCCACCUUGGGAAGCCAUCCUUGAGGCCCUUGCUCCAAUAGGAGAGGUAUUGUGGAUUCACAUGGAAUUCUCGGGUGCCAA | 0.259 |
| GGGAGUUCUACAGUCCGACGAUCAUGAGAAACUCAGAGCUCUGGACCGAAAGCAGAAAGUUUGCCGGGAAAAAAAAAGACAACAUUAUUACCAUCGAUUCAGUGCCUGGAUAAAGAGGAAAGCUUACUUGUUUUGGAAUUCUCGGGUGCCAA | 0.614 |

Mixed results
| Substance | target | test | system | conditions | scale | endpoint | value |
| --- | --- | --- | --- | --- | --- | --- | --- |
| PhoQ, residues 284 288 289 292 302 303 NLSRDF | PhoP, residues 12 14 15 18 19 TQAIL (Escherichia coli, UniProt P23836) | Sort-seq, item: YFP reporter | E. coli | PhoQ-PhoP variant library, together with: 10 µM Mg2+ | relative to: high Mg2+ state, higher = stronger signaling | fold induction | 6.81 |

A few entries again (block 2):
| Oligonucleotide | log2 enrichment |
| --- | --- |
| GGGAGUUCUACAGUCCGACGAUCUAACUUUAGAGGAGGAUCUGAUGGAUGUGGCAGUGGACGUGGAUUUGGGGAUGGCUAUAAUGGGUAUGGAGGAGGACCUGGAGGUGGCAAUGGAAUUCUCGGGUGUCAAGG | 0.38 |
| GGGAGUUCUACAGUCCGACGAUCUCAAGUCCUGUGCUACACAUCGUAUGUACCGAAUCGGUUUUUGGUUUGGUUUGGAAAGUAUUAUGUUACGCCGUUCGGAUCUGCACUUCCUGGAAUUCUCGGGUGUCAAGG | -0.939 |
| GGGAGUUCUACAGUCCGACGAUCCUCAAGUCCUGUGCUACACAUCGUAUGUACCGAAUCGGGAAGGAAGGGAAGGGGAAAGUAUUAUGUUACGCCGUUCGGAUCUGCACUUCCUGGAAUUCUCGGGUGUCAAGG | 0.328 |
| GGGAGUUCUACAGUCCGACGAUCUGGCCCUGGUGGCAUGCGGGGAGGAAGAGGUGGCCUCAUGGAUCGUGGUUGUCCCGGUGGAAUGUUCAGAGGUGGCCGUGGUGGAGACAGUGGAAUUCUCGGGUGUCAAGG | 0.226 |
| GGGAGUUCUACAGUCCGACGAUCUGGAGAGGGAAGUCCCAAUGGUGCUAGAAUGGUGCUGCAGUGGCAGAAGACGGCUCACAAGUGAGGUCUGGAAGAACAACAGGGAAGACAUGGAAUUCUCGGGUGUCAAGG | 0.267 |
| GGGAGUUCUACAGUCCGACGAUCUAACUUUAGAGAAGGAUCUGAUGGAUAUGGCAGUGGACGUGGAUUUGGGGAUGGCUAUAAUGGGUAUGGAGGAGGACCUGGAGGUGGCAAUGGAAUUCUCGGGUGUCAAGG | 0.405 |
